Published values gathered from unrelated publications.
Parts stem from different laboratories: compare values within a part only. Changes are numbered by the printed parent chain.

Study 1
Target: Sal-like protein 4, full length isoform A (SALL4, Homo sapiens, UniProt Q9UJQ4, residues 1-1053)
UniProt Q9UJQ4, sequence (whole entry, looked up): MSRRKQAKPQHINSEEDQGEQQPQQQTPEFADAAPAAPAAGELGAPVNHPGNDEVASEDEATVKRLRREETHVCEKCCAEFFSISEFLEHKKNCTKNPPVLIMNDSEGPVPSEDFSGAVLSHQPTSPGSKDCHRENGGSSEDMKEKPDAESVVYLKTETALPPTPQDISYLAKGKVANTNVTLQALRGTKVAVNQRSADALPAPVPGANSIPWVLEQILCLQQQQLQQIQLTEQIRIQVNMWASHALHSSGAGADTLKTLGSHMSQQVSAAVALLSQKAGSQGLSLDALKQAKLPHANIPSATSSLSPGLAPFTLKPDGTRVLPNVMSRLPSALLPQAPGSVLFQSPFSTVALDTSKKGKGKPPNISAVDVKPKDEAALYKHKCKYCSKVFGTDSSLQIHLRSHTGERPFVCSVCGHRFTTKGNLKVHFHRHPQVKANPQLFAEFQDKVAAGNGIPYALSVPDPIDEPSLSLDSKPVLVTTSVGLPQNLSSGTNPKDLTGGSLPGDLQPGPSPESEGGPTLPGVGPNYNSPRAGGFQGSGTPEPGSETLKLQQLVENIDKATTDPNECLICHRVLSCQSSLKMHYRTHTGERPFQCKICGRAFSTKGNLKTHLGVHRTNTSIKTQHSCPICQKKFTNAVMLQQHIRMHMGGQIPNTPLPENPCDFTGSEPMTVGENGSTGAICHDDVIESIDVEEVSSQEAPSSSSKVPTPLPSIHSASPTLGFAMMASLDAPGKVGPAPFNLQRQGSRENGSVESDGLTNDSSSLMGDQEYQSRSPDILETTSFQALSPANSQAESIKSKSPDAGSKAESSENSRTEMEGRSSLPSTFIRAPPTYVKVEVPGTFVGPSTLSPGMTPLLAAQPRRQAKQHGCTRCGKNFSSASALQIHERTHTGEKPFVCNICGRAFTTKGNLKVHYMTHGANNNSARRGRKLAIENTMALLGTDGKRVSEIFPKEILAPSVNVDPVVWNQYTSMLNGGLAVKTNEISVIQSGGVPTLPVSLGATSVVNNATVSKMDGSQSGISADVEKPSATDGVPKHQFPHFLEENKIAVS
Technique: universal PBM
Molecule type: double-stranded DNA, one strand shown
Medium: in vitro
Concentration: 600 nM
Setting: 8-mer, flanks averaged, mean of replicates
Reading: higher = stronger binding
With `TCCTCAGA` the E-score was 0.0369.
With `CATTGGGC` the E-score was -0.17.
`AGCTGTCA` gave an E-score of 0.046.
With `TGTGGTAA` the E-score was 0.121.
`CATTGCGA` has an E-score of 0.109.
With `AGTTTGGA` the E-score was 0.149.
For `ATGTGTAA`, the E-score was 0.266.
The E-score of `AAGTAATC` is reported as 0.164.
With `CCTTGGAC` the E-score was -0.123.

Study 2
Target: CCNE1, cyclin fold, Cln2 fusion (human)
Technique: yeast growth competition, sequencing
Medium: yeast
Setting: strong parent motif
Relative to: not given
Reading: higher = stronger binding
Starting sequence: PKN2 docking peptide (human); VSAVRKLDFSDTM; partner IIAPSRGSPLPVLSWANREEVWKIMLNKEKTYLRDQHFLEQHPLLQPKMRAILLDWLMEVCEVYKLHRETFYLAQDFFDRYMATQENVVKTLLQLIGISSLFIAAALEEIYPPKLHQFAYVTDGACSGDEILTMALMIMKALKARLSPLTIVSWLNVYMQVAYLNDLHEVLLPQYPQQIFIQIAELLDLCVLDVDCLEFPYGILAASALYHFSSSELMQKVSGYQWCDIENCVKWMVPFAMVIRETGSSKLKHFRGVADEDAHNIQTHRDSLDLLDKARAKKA
For `T12S`, “normalised enrichment score” read 5.66.
`L7G` — result for “normalised enrichment score”: -0.105.
Under “normalised enrichment score”, `K6M` is recorded as 4.09.
`D8S` — result for “normalised enrichment score”: 5.49.
Under “normalised enrichment score”, `D11F` is recorded as 4.78.
`S2H`: “normalised enrichment score” 5.49.
`S10W`: “normalised enrichment score” 3.86.

Study 3
Target: Interferon regulatory factor 5, full length, phosphomimetic (IRF5, Homo sapiens, UniProt Q13568-2, residues 1-514, K96S/S451D/S453D/S456D/S462D)
Technique: protein-binding microarray
Molecule type: double-stranded DNA, one strand shown
Medium: in vitro
Concentration: 250 nM
Setting: 60-bp whole probe
Together with: salmon DNA 0.4 mg/ml
Relative to: random background probes
Reading: higher = stronger binding
Shared flanks, not repeated: GCCTAGCAC … GTCTTGATTCGCTTGACGCTGCTG
The log fluorescence of `TCAAATTTTGTCATCTAACTGTGCTAG` is reported as 0.632 z-score.
`TTAGGTATCGACACCGGGTTAGTGCTA` gave a log fluorescence of 2.46 z-score.
`TTACATTTCAGTATCGATTAGTGCTAG` has a log fluorescence of 8.74 z-score.
The log fluorescence of `TTAGGTCTCATTATCCTTTAGTGCTAG` is reported as 0.288 z-score.
`GACGGTCTCCTTCTCGTGACGTGCTAG` gave a log fluorescence of -0.264 z-score.
The log fluorescence of `TTAGGTATCTACACTGGGTTAGTGCTA` is reported as 0.231 z-score.
`TTAGGTTTCGGTTCCGGATAGTGCTAG` has a log fluorescence of 10.4 z-score.
For `TTAGGTTACGGGTTTCGGTTAGTGCTA`, the log fluorescence was 7.29 z-score.
`TCAACACTCGGTTTCCAACTGTGCTAG` gave a log fluorescence of 0.404 z-score.
With `TTAGATTTCAGTATCGATGAGTGCTAG` the log fluorescence was 7.23 z-score.

Further values, each from its own experiment
`PhoQ, residues 284 288 289 292 302 303 WVSSAF` gave a fold induction of 16.8 (PhoP, residues 12 14 15 18 19 LQHIR (Escherichia coli, UniProt P23836); Sort-seq, item: YFP reporter; E. coli; PhoQ-PhoP variant library, together with: 10 µM Mg2+; relative to: high Mg2+ state, higher = stronger signaling).

Excerpt of the above (study 1):
With `TGTGGTAA` the E-score was 0.121.
`CATTGCGA` has an E-score of 0.109.
With `AGTTTGGA` the E-score was 0.149.
For `ATGTGTAA`, the E-score was 0.266.
